# Measurements of several laboratories.
# Protocols differ between the studies behind these lines.
# Cell line: MCF7
SMILES,observed,technique,concentration,time,baseline,inhibition [%]
COc1ccc(OCC(=O)c2ccc(O)c(C)c2O)cc1,cell growth or viability,MTT,100 µM,48 h,,6.72
COc1cccc(Cc2c[nH]c3ncccc23)c1,cell growth or viability,,10 µM,72 h,,16
O=C(COc1ccccc1/C=N/Nc1nc(-c2ccc(Br)cc2)cs1)N1CCN(C(=O)COc2ccccc2/C=N/Nc2nc(-c3ccc(Br)cc3)cs2)CC1,cell growth or viability,SRB,100 µM,48 h,,71.3
Cn1c(=O)c(C(=O)N/N=C/c2ccccc2/C=N/NC(=O)c2nc3ccccc3n(C)c2=O)nc2ccccc21,cell growth or viability,MTT,10 µM,,,46.5
Fc1ccc(F)c(Cc2c[nH]c3ncc(C(F)(F)F)cc23)c1,cell growth or viability,,10 µM,72 h,,41
C/C(=N\N=C1/NC(=O)CS1)c1ccccn1,cell growth or viability,SRB,100 µg/mL,48 h,,65.4
O=C(COc1ccccc1/C=N/Nc1nc(-c2ccc(Cl)cc2)cs1)N1CCN(C(=O)COc2ccccc2/C=N/Nc2nc(-c3ccc(Cl)cc3)cs2)CC1,cell growth or viability,SRB,100 µM,48 h,,76
CCNC(=S)N/N=C(\C)c1ccccn1,cell growth or viability,SRB,100 µg/mL,48 h,,69.8
C[C@]1(CO)C2CC[C@@]3(CO3)[C@@H](/C=C/C3=CCOC3=O)[C@]2(C)CC[C@H]1O (stereo partly drawn),cell growth or viability,MTT,20 µM,48 h,,15.2
CC(C)(C)c1cc2c(O)c(c1)Cc1cc(C(C)(C)C)cc(c1OCC(=O)Nc1cccc3cccnc13)Cc1cc(C(C)(C)C)cc(c1O)Cc1cc(C(C)(C)C)cc(c1OCC(=O)Nc1cccc3cccnc13)COC2,cell growth or viability,MTT,15 µM,72 h,,24
FC(F)(F)c1cccc(Cc2c[nH]c3ncc(C(F)(F)F)cc23)c1,cell growth or viability,,10 µM,72 h,,51
COc1ccc(C=CC(=O)c2cccc(O)c2)cc1,cell growth,MTT,100 µM,48 h,DMSO,89.3
COc1cc(/C=C/C(=O)/C=C(O)/C=C/c2ccc(OCC(=O)N3CCOCCOCCOCCOCC3)c(OC)c2)ccc1OCC(=O)N1CCOCCOCCOCCOCC1,cell growth or viability,SRB,5 µM,,,4.69
Nc1cc(-c2cc(-c3ccccc3)c(C(F)(F)F)s2)n[nH]1,cell growth or viability,MTT,100 µM,48 h,,25.9
CC(C)(C)c1cc2c(O)c(c1)Cc1cc(C(C)(C)C)cc(c1OCC(=O)NCc1ccccn1)Cc1cc(C(C)(C)C)cc(c1O)Cc1cc(C(C)(C)C)cc(c1OCC(=O)NCc1ccccn1)COC2,cell growth or viability,MTT,15 µM,72 h,,67
OC(c1ccc(Cl)c(C(F)(F)F)c1)c1c[nH]c2ncc(C(F)(F)F)cc12 (stereo not drawn),cell growth or viability,,10 µM,72 h,,30
N#C/C(=C1C=C/C(=N\O)C(Br)=C/1)c1ccc(Cl)cc1,cell growth or viability,MTT,100 µM,48 h,,66
FC(F)(F)Oc1cccc(Cc2c[nH]c3ncc(C(F)(F)F)cc23)c1,cell growth or viability,,10 µM,72 h,,27
CCN(CC)CCOc1ccc(C(=C(C)c2ccc(Cl)cc2)c2ccc(Cl)cc2)cc1,cell growth or viability,,10 µM,,,65.2
COc1ccc2cc3[n+](cc2c1OCc1cn(Cc2c(Cl)cc(Cl)cc2Cl)nn1)CCc1cc2c(cc1-3)OCO2.[Cl-],cell growth,MTT,7.8 µM,,,> 45
CCC(=C(c1ccc(Cl)cc1)c1ccc(OCCN(CC)CC)cc1)c1ccc(Cl)cc1,cell growth or viability,,10 µM,,,75.8
FC1(F)Oc2ccc(Cc3c[nH]c4ncc(C(F)(F)F)cc34)cc2O1,cell growth or viability,,10 µM,72 h,,46
COc1ccc(C2=Nn3c(NN=C4C(=O)N(C)c5ccc(Br)cc54)nnc3SC2)cc1,cell growth or viability,SRB,10 µM,,,30
CC(C)(C)c1cc2c(O)c(c1)Cc1cc(C(C)(C)C)cc(c1OCC(=O)Nc1cccc3ncccc13)Cc1cc(C(C)(C)C)cc(c1O)Cc1cc(C(C)(C)C)cc(c1OCC(=O)Nc1cccc3ncccc13)COC2,cell growth or viability,MTT,15 µM,72 h,,23
CCC(=C(c1ccc(Cl)cc1)c1ccc(OCCN(C)C)cc1)c1ccc(OC)cc1,cell growth or viability,,10 µM,,,3.34
COc1cccc(C(O)c2c[nH]c3ncc(C(F)(F)F)cc23)c1 (stereo not drawn),cell growth or viability,,10 µM,72 h,,33
Cc1cccc(NCC(=O)Nc2nc3ccccc3s2)c1,cell growth or viability,MTT,100 µM,72 h,,-6.5
CC12COC(c3ccccc3)OC1CCC1(C)C(C=CC3=CCOC3=O)C(CO)=CCC21 (stereo not drawn),cell growth or viability,MTT,20 µM,48 h,,0
CCC(=C(c1ccc(Cl)cc1)c1ccc(OCCN(C)C)cc1)c1ccc(Cl)cc1,cell growth or viability,,10 µM,,,79.5
CC(C)(C)c1cc2c(O)c(c1)Cc1cc(C(C)(C)C)cc(c1OCC(=O)Nc1ccccn1)Cc1cc(C(C)(C)C)cc(c1O)Cc1cc(C(C)(C)C)cc(c1OCC(=O)Nc1ccccn1)COC2,cell growth or viability,MTT,15 µM,72 h,,23
CCC(=C(c1ccc(Cl)cc1)c1ccc(OCCN2CCCCC2)cc1)c1ccc(OC)cc1,cell growth or viability,,10 µM,,,84.7
O=C(CCCCCCNCc1ccc(-c2ccccc2)s1)NO,,,10 µM,,,63
OC(c1ccc(OCc2ccccc2)cc1)c1c[nH]c2ncc(C(F)(F)F)cc12 (stereo not drawn),cell growth or viability,,10 µM,72 h,,25
CCC(=C(c1ccc(Cl)cc1)c1ccc(OCCN2CCCC2)cc1)c1ccccc1,cell growth or viability,,10 µM,,,76.9
C=C/C(=C/C(=O)C[C@H](C)C[C@@H](C)CC[C@H](O)[C@H](C)C(=O)/C=C/[C@H](C)[C@@H](C)O)CC,cell growth or viability,MTT,20 µM,48 h,,70
COc1ccc(CC(C)=C(c2ccc(Cl)cc2)c2ccc(OCCN3CCCCCC3)cc2)cc1,cell growth or viability,,10 µM,,,37.3
CC1(CO)C(O)CCC2(C)C(C=CC3=CCOC3=O)C(CO)=CCC12 (stereo not drawn),cell growth or viability,MTT,20 µM,48 h,,4.03
CCC(=C(c1ccc(Cl)cc1)c1ccc(OCCN(CC)CC)cc1)c1ccc(OC)cc1,cell growth or viability,,10 µM,,,86.3
CC(C)(C)c1cc2c(O)c(c1)Cc1cc(C(C)(C)C)cc(c1OCC(=O)NCc1ccncc1)Cc1cc(C(C)(C)C)cc(c1O)Cc1cc(C(C)(C)C)cc(c1OCC(=O)NCc1ccncc1)COC2,cell growth or viability,MTT,15 µM,72 h,,96

# Some of these lines once more:
SMILES,observed,technique,concentration,time,baseline,inhibition [%]
O=C(COc1ccccc1/C=N/Nc1nc(-c2ccc(Cl)cc2)cs1)N1CCN(C(=O)COc2ccccc2/C=N/Nc2nc(-c3ccc(Cl)cc3)cs2)CC1,cell growth or viability,SRB,100 µM,48 h,,76
CCC(=C(c1ccc(Cl)cc1)c1ccc(OCCN(C)C)cc1)c1ccc(OC)cc1,cell growth or viability,,10 µM,,,3.34
FC(F)(F)Oc1cccc(Cc2c[nH]c3ncc(C(F)(F)F)cc23)c1,cell growth or viability,,10 µM,72 h,,27
C[C@]1(CO)C2CC[C@@]3(CO3)[C@@H](/C=C/C3=CCOC3=O)[C@]2(C)CC[C@H]1O (stereo partly drawn),cell growth or viability,MTT,20 µM,48 h,,15.2
N#C/C(=C1C=C/C(=N\O)C(Br)=C/1)c1ccc(Cl)cc1,cell growth or viability,MTT,100 µM,48 h,,66
CC(C)(C)c1cc2c(O)c(c1)Cc1cc(C(C)(C)C)cc(c1OCC(=O)NCc1ccncc1)Cc1cc(C(C)(C)C)cc(c1O)Cc1cc(C(C)(C)C)cc(c1OCC(=O)NCc1ccncc1)COC2,cell growth or viability,MTT,15 µM,72 h,,96
